Results of several laboratories.
Lines come from different studies, so protocols differ. ± gives the spread as reported. No end group written: not given here.
B1: disulfide; chain GLPVCGETCVGGTCNTPGCTCSWPVCTRN (disulfide (positions not given here))
B2: bicyclic; chain AATCHCRRSCYSTEYSYGTCTVMGINHRFCCL (also: bicyclic or more (positions not given here))

Under “half-life at fracture site”, `abaloparatide` is recorded as 8.8 h (fracture-bearing mice, fractured femur; 40 nmol/kg).
`regorafenib N-β-glucuronide`: “metabolite to parent AUC ratio” 3.84% (Oatp1b2 knockout mice; oral, regorafenib single dose, molecular weight corrected).
`Rilpivirine docusate` has an equilibrium solubility of 4.34 ± 0.07 µg/mL (buffer; pH 1.2).
For `coproporphyrin I`, “mean daily plasma concentration” read 0.798 ± 0.032 nM (human, plasma; control day).
`Teicoplanin` has a recovery of 98.9% (item: stability; human serum; 2 days, room temperature, high QC).
`Polymyxin B` — result for “log2 fold change”: -4.2 (untargeted LC-MS metabolomics, item: ATP; Sprague-Dawley rat, right cerebral cortex; intracerebroventricular, 0.75 mg/kg, 1 h; relative to: NaCl control).
`GPSPPTYPGDDAPVEDLIRFYDNLQQYLNVVTRHRY` has a melting temperature of 61.7 ± 0.6 °C (CD thermal denaturation; peptide, sodium phosphate buffer with NaCl; 30 µM, pH 7.4).
Under “secondary structure content”, `KTKEGVVHGVATVA` is recorded as 0% (far-UV circular dichroism, item: α-helices; peptide, PBS; 10 µM, pH 7.4, 25 °C).
For `EESLSLSLSLSLSLEE`, the nanofibre width was 8.7 ± 1.1 nm (AFM; peptide, dried on mica from water; 0.1 wt%).
`B1`: “conversion to native fold” less than 5% (RP-HPLC; aqueous NH4HCO3, isopropanol; concentration not given, pH 8.5, room temperature, 50% v/v isopropanol, no redox).
The albumin of `caspofungin` is reported as 25.9 g/L (adult ICU patients, mITT, serum; dose not given, day 14).
`B2`: “sedimentation coefficient S20,w” 0.808 S (sedimentation velocity AUC; 10 mM Tris-maleate; 160 µM, pH 6.4, 20 °C).
`coproporphyrin I` has a urine concentration of 1.68 nM (healthy human volunteers, spot urine; dose not given, pre-dose, median, together with: ezetimibe plus rifampin).
`daptomycin` gave a recovery of 108% (stock solution; 5 months, -40 °C).
With `FNA / CGLSGLGVA-NH2 ([18F]FNA-labelled, C-amide)` the tissue uptake was 0.87 %ID/g (ex vivo gamma counting; peptide, healthy mouse, blood; 60 min post injection).

Some of these lines once more:
The albumin of `caspofungin` is reported as 25.9 g/L (adult ICU patients, mITT, serum; dose not given, day 14).
